# Results from different studies.
# Each line is one published result; not all experiments were run side by side. “And” joins repeats or separate records; there may be more than shown. pIC50: −log10 of the molar value.
# HLA class I histocompatibility antigen, A alpha chain: HLA class I histocompatibility antigen, A alpha chain (Homo sapiens, UniProt P04439)
# NEU1: Sialidase-1 (NEU1, Homo sapiens, UniProt Q99519)
# Proteasome component C5/PSMB5 chymotrypsin-like site: Proteasome component C5/PSMB5, chymotrypsin-like site (Homo sapiens, UniProt P20618+P28074)
# Sequence of UniProt P28074 (whole entry, looked up): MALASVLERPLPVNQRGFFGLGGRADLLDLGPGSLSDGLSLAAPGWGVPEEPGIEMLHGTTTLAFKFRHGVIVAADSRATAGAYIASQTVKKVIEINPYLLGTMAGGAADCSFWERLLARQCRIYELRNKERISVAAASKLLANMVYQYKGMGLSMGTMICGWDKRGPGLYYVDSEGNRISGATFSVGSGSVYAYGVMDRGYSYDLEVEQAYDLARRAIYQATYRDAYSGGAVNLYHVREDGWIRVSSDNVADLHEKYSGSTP
# Sequence of UniProt P20618 (whole entry, looked up): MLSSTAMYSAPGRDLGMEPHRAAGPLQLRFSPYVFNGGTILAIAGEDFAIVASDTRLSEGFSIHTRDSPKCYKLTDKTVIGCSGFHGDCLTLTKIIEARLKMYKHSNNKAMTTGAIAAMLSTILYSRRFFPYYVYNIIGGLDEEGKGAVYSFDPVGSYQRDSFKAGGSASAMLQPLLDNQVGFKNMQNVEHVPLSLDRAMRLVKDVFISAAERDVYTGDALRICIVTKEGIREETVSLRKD
# CASP3: Caspase-3 (CASP3, Homo sapiens, UniProt P42574)
# Sequence of UniProt C7C422 (whole entry, looked up): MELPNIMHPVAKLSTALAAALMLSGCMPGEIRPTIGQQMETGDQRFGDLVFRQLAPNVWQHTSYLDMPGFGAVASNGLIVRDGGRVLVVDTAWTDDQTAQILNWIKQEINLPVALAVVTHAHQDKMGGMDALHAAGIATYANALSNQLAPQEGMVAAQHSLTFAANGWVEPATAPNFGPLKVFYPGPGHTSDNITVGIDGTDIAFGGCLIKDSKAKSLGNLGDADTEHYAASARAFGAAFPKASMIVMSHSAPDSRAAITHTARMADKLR
# Sequence of UniProt P42574 (whole entry, looked up): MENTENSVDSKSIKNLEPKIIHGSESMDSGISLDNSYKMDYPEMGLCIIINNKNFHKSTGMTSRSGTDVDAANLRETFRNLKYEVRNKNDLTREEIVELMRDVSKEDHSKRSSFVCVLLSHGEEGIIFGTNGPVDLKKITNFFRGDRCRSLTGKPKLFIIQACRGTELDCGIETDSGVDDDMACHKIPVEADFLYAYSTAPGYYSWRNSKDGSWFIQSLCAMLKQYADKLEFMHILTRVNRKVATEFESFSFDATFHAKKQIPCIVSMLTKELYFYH
# Sequence of UniProt Q92499 (whole entry, looked up): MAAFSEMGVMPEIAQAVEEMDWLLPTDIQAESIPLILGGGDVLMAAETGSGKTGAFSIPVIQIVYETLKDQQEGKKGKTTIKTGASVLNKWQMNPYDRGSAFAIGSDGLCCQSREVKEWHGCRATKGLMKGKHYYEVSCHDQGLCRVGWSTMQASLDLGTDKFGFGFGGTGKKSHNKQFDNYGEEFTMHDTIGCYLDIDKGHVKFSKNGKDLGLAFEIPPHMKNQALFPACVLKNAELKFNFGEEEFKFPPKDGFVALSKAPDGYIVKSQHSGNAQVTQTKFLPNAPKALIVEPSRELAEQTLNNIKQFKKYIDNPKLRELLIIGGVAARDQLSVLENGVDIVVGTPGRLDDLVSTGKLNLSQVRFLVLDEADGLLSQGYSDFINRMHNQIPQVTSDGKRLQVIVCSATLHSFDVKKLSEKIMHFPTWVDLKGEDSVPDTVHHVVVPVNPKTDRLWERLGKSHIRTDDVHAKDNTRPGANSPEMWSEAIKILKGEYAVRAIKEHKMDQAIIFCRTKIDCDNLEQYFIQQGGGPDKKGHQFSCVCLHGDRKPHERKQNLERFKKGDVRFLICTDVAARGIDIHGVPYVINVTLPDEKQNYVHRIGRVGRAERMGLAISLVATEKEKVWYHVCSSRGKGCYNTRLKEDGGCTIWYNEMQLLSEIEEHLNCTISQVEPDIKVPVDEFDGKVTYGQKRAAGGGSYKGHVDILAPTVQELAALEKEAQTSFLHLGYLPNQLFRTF
# Sequence of UniProt P07333 (whole entry, looked up): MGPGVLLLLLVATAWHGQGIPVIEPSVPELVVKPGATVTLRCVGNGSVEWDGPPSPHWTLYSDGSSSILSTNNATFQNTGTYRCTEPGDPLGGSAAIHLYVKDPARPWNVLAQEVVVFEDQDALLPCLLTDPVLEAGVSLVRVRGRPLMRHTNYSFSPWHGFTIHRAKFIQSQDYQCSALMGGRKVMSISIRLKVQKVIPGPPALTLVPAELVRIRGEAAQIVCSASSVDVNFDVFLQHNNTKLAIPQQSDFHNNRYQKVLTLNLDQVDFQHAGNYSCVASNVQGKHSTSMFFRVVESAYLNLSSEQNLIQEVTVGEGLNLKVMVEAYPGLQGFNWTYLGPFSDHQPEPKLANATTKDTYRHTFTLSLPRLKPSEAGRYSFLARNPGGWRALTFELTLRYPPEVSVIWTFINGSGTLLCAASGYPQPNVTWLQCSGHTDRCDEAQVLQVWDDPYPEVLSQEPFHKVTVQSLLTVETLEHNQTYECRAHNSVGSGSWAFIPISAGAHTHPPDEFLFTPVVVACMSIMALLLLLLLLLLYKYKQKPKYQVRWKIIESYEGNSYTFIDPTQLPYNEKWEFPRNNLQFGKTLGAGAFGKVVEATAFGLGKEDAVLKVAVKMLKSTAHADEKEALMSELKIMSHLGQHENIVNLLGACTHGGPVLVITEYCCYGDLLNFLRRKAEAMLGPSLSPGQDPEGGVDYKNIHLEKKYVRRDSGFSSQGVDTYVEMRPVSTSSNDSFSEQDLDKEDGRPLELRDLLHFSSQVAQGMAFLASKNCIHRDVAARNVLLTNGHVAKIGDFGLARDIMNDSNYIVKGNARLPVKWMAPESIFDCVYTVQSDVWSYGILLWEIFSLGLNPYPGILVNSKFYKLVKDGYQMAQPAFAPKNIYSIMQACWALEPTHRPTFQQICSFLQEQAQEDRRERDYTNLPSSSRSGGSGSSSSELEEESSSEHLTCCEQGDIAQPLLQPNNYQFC
# Sequence of UniProt P78536 (whole entry, looked up): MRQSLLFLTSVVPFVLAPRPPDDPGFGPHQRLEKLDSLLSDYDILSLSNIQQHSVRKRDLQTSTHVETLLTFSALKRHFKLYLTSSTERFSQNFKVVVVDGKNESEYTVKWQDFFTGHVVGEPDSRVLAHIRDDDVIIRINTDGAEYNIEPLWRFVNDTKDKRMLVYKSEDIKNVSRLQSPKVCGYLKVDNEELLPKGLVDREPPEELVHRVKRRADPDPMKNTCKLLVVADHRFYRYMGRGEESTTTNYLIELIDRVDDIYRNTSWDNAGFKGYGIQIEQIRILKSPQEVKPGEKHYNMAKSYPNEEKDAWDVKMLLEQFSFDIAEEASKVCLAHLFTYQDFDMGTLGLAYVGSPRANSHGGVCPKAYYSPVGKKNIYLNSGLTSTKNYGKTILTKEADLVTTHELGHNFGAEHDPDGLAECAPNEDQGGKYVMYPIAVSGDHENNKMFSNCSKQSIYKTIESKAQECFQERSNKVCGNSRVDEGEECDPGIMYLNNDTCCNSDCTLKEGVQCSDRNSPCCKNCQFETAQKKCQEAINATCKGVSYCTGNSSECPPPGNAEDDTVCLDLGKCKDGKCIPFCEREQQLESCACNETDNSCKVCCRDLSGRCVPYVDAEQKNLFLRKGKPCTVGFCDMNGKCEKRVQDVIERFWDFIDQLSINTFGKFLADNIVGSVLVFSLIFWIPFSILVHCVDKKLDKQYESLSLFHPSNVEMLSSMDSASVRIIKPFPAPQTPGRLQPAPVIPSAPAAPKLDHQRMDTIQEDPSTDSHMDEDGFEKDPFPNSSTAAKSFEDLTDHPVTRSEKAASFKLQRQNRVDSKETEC
# Sequence of UniProt O15146 (whole entry, looked up): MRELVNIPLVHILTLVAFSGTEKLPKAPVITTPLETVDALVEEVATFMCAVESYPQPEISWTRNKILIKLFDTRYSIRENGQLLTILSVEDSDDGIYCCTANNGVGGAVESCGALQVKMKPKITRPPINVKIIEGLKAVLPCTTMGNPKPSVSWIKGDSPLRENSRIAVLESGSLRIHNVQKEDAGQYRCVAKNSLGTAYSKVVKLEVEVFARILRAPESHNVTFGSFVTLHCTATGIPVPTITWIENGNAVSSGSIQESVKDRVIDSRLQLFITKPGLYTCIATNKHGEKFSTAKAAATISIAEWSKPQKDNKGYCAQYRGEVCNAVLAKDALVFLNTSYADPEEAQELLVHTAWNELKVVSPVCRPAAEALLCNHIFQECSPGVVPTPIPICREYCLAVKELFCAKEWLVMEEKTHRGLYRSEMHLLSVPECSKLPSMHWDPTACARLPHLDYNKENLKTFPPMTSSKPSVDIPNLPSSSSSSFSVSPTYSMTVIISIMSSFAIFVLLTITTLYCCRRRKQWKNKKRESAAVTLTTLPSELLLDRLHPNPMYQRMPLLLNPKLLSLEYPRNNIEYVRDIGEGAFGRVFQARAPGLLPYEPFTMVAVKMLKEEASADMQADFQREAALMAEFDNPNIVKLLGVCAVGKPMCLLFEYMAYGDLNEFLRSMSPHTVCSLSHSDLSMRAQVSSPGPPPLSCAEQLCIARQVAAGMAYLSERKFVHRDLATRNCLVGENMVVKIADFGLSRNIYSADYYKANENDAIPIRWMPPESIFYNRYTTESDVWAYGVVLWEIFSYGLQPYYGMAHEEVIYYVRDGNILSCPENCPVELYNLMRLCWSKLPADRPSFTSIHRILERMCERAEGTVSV
# Sequence of UniProt P52895 (whole entry, looked up): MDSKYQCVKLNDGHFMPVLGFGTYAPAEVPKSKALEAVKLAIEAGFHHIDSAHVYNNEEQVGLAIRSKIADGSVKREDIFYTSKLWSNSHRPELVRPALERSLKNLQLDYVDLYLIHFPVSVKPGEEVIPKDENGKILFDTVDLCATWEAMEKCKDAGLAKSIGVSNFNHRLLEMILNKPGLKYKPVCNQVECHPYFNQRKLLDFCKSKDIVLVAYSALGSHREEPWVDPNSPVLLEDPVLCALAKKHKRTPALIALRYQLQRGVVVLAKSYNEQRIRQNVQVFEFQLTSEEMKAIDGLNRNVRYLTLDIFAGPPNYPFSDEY
Structure (SMILES),target,assay,conditions,quantity,result
CSCC[C@H](NC(=O)[C@H](Cc1c[nH]cn1)NC(=O)[C@H](Cc1ccccc1)NC(=O)[C@@H]1CCCN1C(=O)[C@H](CCCCN)NC(=O)[C@H](CCC(=O)O)NC(=O)[C@H](Cc1c[nH]c2ccccc12)NC(=O)[C@H](CC(C)C)NC(=O)[C@@H](N)CCCNC(=N)N)C(=O)O,"HLA class I histocompatibility antigen, A alpha chain",cell-free assay,,pIC50,6.08
Cc1cn([C@H]2[C@H]([C@H](O)[C@H](O)CO)OC(C(=O)O)=C[C@@H]2O)nn1,NEU1,"enzyme activity, inhibitor",,pIC50,5.82
CC[C@H](C)[C@H](NC(=O)[C@H](CCCNC(=N)N)NC(=O)[C@H](CC(N)=O)NC(=O)[C@H](Cc1ccccc1)NC(=O)[C@@H](NC(=O)[C@@H](N)Cc1ccc(O)cc1)[C@@H](C)O)C(=O)N[C@@H](Cc1c[nH]cn1)C(=O)N[C@@H](CCC(=O)O)C(=O)N[C@@H](Cc1ccccc1)C(=O)O,"HLA class I histocompatibility antigen, A alpha chain",cell-free assay,,pIC50,4.31
CCCCCC(=O)N(C)[C@H]1[C@H]([C@H](O)[C@H](O)CO)OC(C(=O)O)=C[C@@H]1O,NEU1,"enzyme activity, inhibitor",,pIC50,5.26
COc1ncccc1-c1cnn2ccc(N3CCN(C(=O)OC(C)C)CC3)nc12,"Cyclin-dependent kinase-like 5 (CDKL5, Homo sapiens, UniProt O76039)","binding, competition with immobilised ligand",1 µM,remaining binding,94%
CCC(C(=O)Nc1cc(NC2CNC2)ccc1C)n1cccc2nc(SCc3ccc(F)cc3)nc1-2 (centres unmarked),"Ubiquitin carboxyl-terminal hydrolase 28 (USP28, Homo sapiens, UniProt Q96RU2)","enzyme activity, inhibitor",,pIC50,< 4.00
COc1ccc(C[C@H](NC(=O)[C@H](C)NC(=O)c2ccc(-c3ccc(C(C)=O)cc3)o2)C(=O)N[C@@H](CC(C)C)C(=O)C(=O)Nc2ccccc2)cc1,Proteasome component C5/PSMB5 chymotrypsin-like site,"enzyme activity in cells, inhibitor",,pIC50,7.28
O=C(N1CCC2(CC1)C[C@@H](CN1CCCCS1(=O)=O)CCO2)C1(c2ccccc2)CCCC1,"ATP-dependent RNA helicase DDX1 (Homo sapiens, UniProt Q92499)","ATPase activity, inhibitor",,pIC50,< 4.30
Nc1ncc(-c2nc(N3CCOCC3)nc(N3CCOCC3)n2)c(C(F)F)n1,"Macrophage colony-stimulating factor 1 receptor, autoinhibited (CSF1R, Homo sapiens, UniProt P07333)","cell-free assay, competition with immobilised ligand",10 µM,remaining binding,2.1%
CCCCCc1cn([C@H]2[C@H]([C@H](O)[C@H](O)CO)OC(C(=O)O)=C[C@@H]2O)nn1,NEU1,"enzyme activity, inhibitor",,pIC50,6.05
O=C(/C=C\c1ccccc1)O[C@H]1[C@@H]2C=CO[C@@H](O[C@@H]3O[C@H](CO)[C@@H](O)[C@H](O)[C@H]3O)[C@@H]2[C@@]2(CO)O[C@@H]12,"Amine oxidase [flavin-containing] B (MAOB, Homo sapiens, UniProt P27338)","enzyme activity, inhibitor, fluorescence",,pIC50,4.33
CC(C)C[C@H](NC(=O)[C@@H](N)Cc1c[nH]cn1)C(=O)N[C@@H](Cc1ccccc1)C(=O)N1CCC[C@H]1C(=O)N[C@@H](CCCNC(=N)N)C(=O)N[C@H](C(=O)N[C@@H](Cc1c[nH]cn1)C(=O)N[C@@H](Cc1ccc(O)cc1)C(=O)N[C@@H](Cc1ccccc1)C(=O)O)[C@@H](C)O,"HLA class I histocompatibility antigen, A alpha chain",cell-free assay,,pIC50,5.78
CC(C)C[C@H](NC(=O)OCc1ccccc1)C(=O)N[C@@H](CC(C)C)C(=O)N[C@@H](CC(C)C)C(=O)C(=O)Nc1ccccc1,Proteasome component C5/PSMB5 chymotrypsin-like site,"enzyme activity in cells, inhibitor",,pIC50,7.47
CN1CC[C@@H]2CN(c3nccc(-c4cnn5ncccc45)n3)C[C@@H]21,"Dual specificity tyrosine-phosphorylation-regulated kinase 1A (DYRK1A, Homo sapiens, UniProt Q13627)","cell-free assay, TR-FRET",,pIC50,5.69
CCC(C(=O)Nc1cc(NC2CCOCC2)ccc1C)n1cc(Br)cc2nc(SCc3ccc(F)cc3)nc1-2 (centres unmarked),"Ubiquitin carboxyl-terminal hydrolase 7 (USP7, Homo sapiens, UniProt Q93009)","enzyme activity, inhibitor",,pIC50,< 4.00
CC(C)[C@H](N)C(=O)N1CCC[C@H]1C(=O)N[C@H](C(=O)N1CCC[C@H]1C(=O)N1CCC[C@H]1C(=O)O)C(C)C,"Dipeptidyl peptidase 4 (DPP4, Homo sapiens, UniProt P27487)","enzyme activity, inhibitor, absorbance",pH 8,pIC50,3.49
CSCC[C@H](NC(=O)[C@H](CC(C)C)NC(=O)[C@@H](N)CCCNC(=N)N)C(=O)N[C@@H](CC(=O)O)C(=O)N[C@@H](CCCCN)C(=O)N1CCC[C@H]1C(=O)N[C@@H](Cc1c[nH]cn1)C(=O)N[C@@H](CO)C(=O)N[C@@H](Cc1ccc(O)cc1)C(=O)O,"HLA class I histocompatibility antigen, A alpha chain",cell-free assay,,pIC50,7.39
CCC(C(=O)Nc1cc(NC2CCNC2)ccc1C)n1cc(Br)cc2nc(SCc3ccc(F)cc3)nc1-2 (centres unmarked),CASP3,"enzyme activity, inhibitor",,pIC50,< 4.00
O=S(=O)(O)C(F)(F)C(F)(F)C(F)(F)C(F)(F)C(F)(F)C(F)(F)C(F)(F)C(F)(F)F,"Aldo-keto reductase family 1 member C2 (AKR1C2, Homo sapiens, UniProt P52895)","enzyme activity, inhibitor, fluorescence",,pIC50,< 4.30
[2H]c1c([2H])c([C@]2([2H])CCCN2C(=O)C(C)(C)Oc2ccc3cn[nH]c3c2)c([2H])c([2H])c1C([2H])([2H])[2H],"Phosphorylase b kinase gamma catalytic chain, skeletal muscle/heart isoform (PHKG1, Homo sapiens, UniProt Q16816)","binding, competition with immobilised ligand",1 µM,remaining binding,84%
Cn1nccc1[C@]1(CNC(=O)c2ccc(F)c(F)c2-c2ccc(C(F)(F)F)cc2)NC(=O)NC1=O,"A disintegrin and metalloproteinase with thrombospondin motifs 7 (Homo sapiens, UniProt Q9UKP4)","enzyme activity, inhibitor, FRET",,pIC50,8.24
CCC(C(=O)Nc1cc(NC2CCNCC2)ccc1C)n1cc(Cl)cc2nc(SCc3ccc(F)cc3)nc1-2 (centres unmarked),"Prothrombin (F2, Homo sapiens, UniProt P00734)","enzyme activity, inhibitor",,pIC50,< 4.00
CC[C@H](C)[C@H](NC(=O)[C@@H]1CCCN1C(=O)[C@H](CCCCN)NC(=O)[C@H](Cc1ccc(O)cc1)NC(=O)[C@H](CCSC)NC(=O)[C@@H](N)CCCNC(=N)N)C(=O)N[C@H](C(=O)N[C@@H](Cc1c[nH]cn1)C(=O)N[C@@H](Cc1ccccc1)C(=O)O)[C@@H](C)O,"HLA class I histocompatibility antigen, A alpha chain",cell-free assay,,pIC50,7.85
CNC(=O)[C@H](Cc1c[nH]c2ccccc12)NC(=O)[C@@H](CC(=O)NO)CC(C)C,"Disintegrin and metalloproteinase domain-containing protein 17 (ADAM17, Homo sapiens, UniProt P78536)","enzyme activity, inhibitor",,pIC50,7.42
Cc1nn(C)cc1-c1nc2c(N3CCN(Cc4ccc(Cl)cc4)CC3)c(Cl)cnc2[nH]1,"Muscle, skeletal receptor tyrosine-protein kinase (MUSK, Homo sapiens, UniProt O15146)","binding, competition with immobilised ligand",1 µM,remaining binding,100%
O=C(O)c1cc[c]([Hg][Cl])cc1,"Metallo-beta-lactamase type 2 (blaNDM-1, Klebsiella pneumoniae, UniProt C7C422)","enzyme activity, inhibitor",,pIC50,5.64 and 5.70
CC[C@H](C)[C@H](NC(=O)[C@H](Cc1c[nH]cn1)NC(=O)[C@@H]1CCCN1C(=O)[C@H](Cc1ccccc1)NC(=O)[C@H](CC(C)C)NC(=O)[C@H](C)N)C(=O)N[C@@H](CCSC)C(=O)N[C@H](C(=O)N[C@@H](Cc1ccc(O)cc1)C(=O)O)[C@@H](C)O,"HLA class I histocompatibility antigen, A alpha chain",cell-free assay,,pIC50,6.98
CCC(C(=O)Nc1cc(NC2COC2)ccc1C)n1cc(Br)cc2nc(SCc3ccc(F)cc3)nc1-2 (centres unmarked),CASP3,"enzyme activity, inhibitor",,pIC50,< 4.00
CC[C@H](C)[C@H](NC(=O)[C@@H](N)CCSC)C(=O)N[C@@H](Cc1ccccc1)C(=O)N[C@@H](CC(=O)O)C(=O)N[C@@H](CCCCN)C(=O)N1CCC[C@H]1C(=O)N[C@H](C(=O)N[C@@H](Cc1ccc(O)cc1)C(=O)N[C@@H](Cc1ccccc1)C(=O)O)C(C)C,"HLA class I histocompatibility antigen, A alpha chain",cell-free assay,,pIC50,6.06
CCCCCCCCCC(=O)N[C@@H](C)C(=O)N[C@@H](Cc1ccc(OC)cc1)C(=O)N[C@@H](CC(C)C)C(=O)C(=O)Nc1ccccc1,Proteasome component C5/PSMB5 chymotrypsin-like site,"enzyme activity in cells, inhibitor",,pIC50,6.64
CCCCCC(=O)N[C@H]1[C@H]([C@H](O)[C@H](O)CO)OC(C(=O)O)=C[C@@H]1O,NEU1,"enzyme activity, inhibitor",,pIC50,6.05
CC[C@H](C)[C@H](NC(=O)[C@H](CCCCN)NC(=O)[C@H](CO)NC(=O)[C@H](Cc1ccccc1)NC(=O)[C@H](CCSC)NC(=O)[C@@H](N)CCCCN)C(=O)N[C@@H](CCSC)C(=O)N[C@H](C(=O)N[C@@H](Cc1ccc(O)cc1)C(=O)O)[C@@H](C)O,"HLA class I histocompatibility antigen, A alpha chain",cell-free assay,,pIC50,7.92

# Some of these lines once more:
Structure (SMILES),target,assay,conditions,quantity,result
O=C(/C=C\c1ccccc1)O[C@H]1[C@@H]2C=CO[C@@H](O[C@@H]3O[C@H](CO)[C@@H](O)[C@H](O)[C@H]3O)[C@@H]2[C@@]2(CO)O[C@@H]12,"Amine oxidase [flavin-containing] B (MAOB, Homo sapiens, UniProt P27338)","enzyme activity, inhibitor, fluorescence",,pIC50,4.33
CC(C)C[C@H](NC(=O)[C@@H](N)Cc1c[nH]cn1)C(=O)N[C@@H](Cc1ccccc1)C(=O)N1CCC[C@H]1C(=O)N[C@@H](CCCNC(=N)N)C(=O)N[C@H](C(=O)N[C@@H](Cc1c[nH]cn1)C(=O)N[C@@H](Cc1ccc(O)cc1)C(=O)N[C@@H](Cc1ccccc1)C(=O)O)[C@@H](C)O,"HLA class I histocompatibility antigen, A alpha chain",cell-free assay,,pIC50,5.78
CC(C)C[C@H](NC(=O)OCc1ccccc1)C(=O)N[C@@H](CC(C)C)C(=O)N[C@@H](CC(C)C)C(=O)C(=O)Nc1ccccc1,Proteasome component C5/PSMB5 chymotrypsin-like site,"enzyme activity in cells, inhibitor",,pIC50,7.47
CN1CC[C@@H]2CN(c3nccc(-c4cnn5ncccc45)n3)C[C@@H]21,"Dual specificity tyrosine-phosphorylation-regulated kinase 1A (DYRK1A, Homo sapiens, UniProt Q13627)","cell-free assay, TR-FRET",,pIC50,5.69
CCC(C(=O)Nc1cc(NC2CCOCC2)ccc1C)n1cc(Br)cc2nc(SCc3ccc(F)cc3)nc1-2 (centres unmarked),"Ubiquitin carboxyl-terminal hydrolase 7 (USP7, Homo sapiens, UniProt Q93009)","enzyme activity, inhibitor",,pIC50,< 4.00
